Published values of several laboratories.
Parts stem from different laboratories: compare values within a part only.

Set 1
Target: RNA binding protein fox-1 homolog 2, RRM domain, GST-SBP tag (RBFOX2, Homo sapiens, UniProt O43251-10, residues 100-194)
Method: RNA Bind-n-Seq
Molecule type: RNA
Sample: in vitro
Tested at: 365 nM
Setting: natural RNA segment, single round, ends assumed
Baseline: no-protein control
Direction: higher = stronger binding
Residues (chain): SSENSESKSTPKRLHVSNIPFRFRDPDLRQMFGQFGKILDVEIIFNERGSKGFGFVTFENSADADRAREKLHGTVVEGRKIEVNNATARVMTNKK
Strand | RBNS enrichment (R)
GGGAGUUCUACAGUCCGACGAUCCCCUCUGCAGGCCGACGGCAGGAGGACAGUCGGGUGAUGGUGUAUUCUGCCCUGCGCAUCCCACCCGAGGACUGAGGGAACCUAGGGGGGACCCCUGGGCCUGGGGUGCCUGGAAUUCUCGGGUGCCAA | 0.797
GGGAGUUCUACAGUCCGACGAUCCUAGUUAUCUUUUAAAGACUGUGGUGGUCUUAAAAGGGAACAAAAGCUACUACAGACUAAAUUUAUGUUUCACCUAGAAUAUAAAACUGUUAGACAUUGGGUUCUCCUUUUGGAAUUCUCGGGUGCCAA | 0.314
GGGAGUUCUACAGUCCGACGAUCGUUCUCCAAGAAGCAGACGUUGGUCUAAGCCUUCAAGAGCUGCCUUAGGGUUUGGGAGAAGUUGGAAUUAACCCAAGGUCAAGUCCUUUCUUUUGCCUCCGAGAUGACCAUGGAAUUCUCGGGUGCCAA | 0.259
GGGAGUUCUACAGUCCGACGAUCUCGGGCUUAGCACCUGCCCUUCUCACCCAUGGCCCACCCAGGCCUGGAGCUGGGAUGCAAUGUAGGCUGAGGGAAAGACGUCAGGUUCCUUUAAUCACAGUCACUGUUUGUGGAAUUCUCGGGUGCCAA | 0.713
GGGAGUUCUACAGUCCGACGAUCUAUUUAGGAUCUUAAGGUGUAUAAAAAGCAAACAUGACUUUGCACCUAAGUAAAUUCUGCAUUCUCAUAGUUGUGUCCCAAUUAACCAAAAAGUUGUCUCUAGAGAAAAUUGGAAUUCUCGGGUGCCAA | 0.288
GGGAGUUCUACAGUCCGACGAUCAUUCCAGUCAUAUGUGUGUGUAACUGCAUCCUAUGAGAAGAGCACAAAUAUUGCUGUUCCAUGUUCUCCACUUUCAUUUUCCACUACAAAUGAAAAGCAAUUUUUGAGACUGGAAUUCUCGGGUGCCAA | 1.34
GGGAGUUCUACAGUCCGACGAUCAAGGAUGACUUUUUUUCUGAUUCAAAAGUGAACUUGAUUUUAAAAACCAGUCAAGAGCAAUCAAAGCAGCACAUGGUGUUGUAUACUUCAUUAGCAAGUGAGUUUGGUGUUGGAAUUCUCGGGUGCCAA | 0.401
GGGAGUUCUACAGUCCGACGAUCACCUCUGUGCAAACAUUGUAGACUUCUUAUUGCUACUCAAUUCUUGCUACUGCUCAUGAUUCAAAUGUCUACCACAAUCUGAAUUGGGAUGUUGACAUUUUGUGGUUAUUUGGAAUUCUCGGGUGCCAA | 2.12
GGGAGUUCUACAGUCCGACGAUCCAGAAGGUCAUCAGAUUGUGAGACUGCUUCCUUGAAACAUUUUUGUGCUAUUGUUUUAAAAAAAUAAUUAAAAAACAGUUGGCGUUAAUAAAAAUGUCAAUGUGAAACUGUGGAAUUCUCGGGUGCCAA | 0.372

Set 2
Target: Ras GTPase-activating protein-binding protein 1, C-terminal RGG region (G3BP1, Homo sapiens, UniProt Q13283)
Sequence of UniProt Q13283 (whole entry, looked up): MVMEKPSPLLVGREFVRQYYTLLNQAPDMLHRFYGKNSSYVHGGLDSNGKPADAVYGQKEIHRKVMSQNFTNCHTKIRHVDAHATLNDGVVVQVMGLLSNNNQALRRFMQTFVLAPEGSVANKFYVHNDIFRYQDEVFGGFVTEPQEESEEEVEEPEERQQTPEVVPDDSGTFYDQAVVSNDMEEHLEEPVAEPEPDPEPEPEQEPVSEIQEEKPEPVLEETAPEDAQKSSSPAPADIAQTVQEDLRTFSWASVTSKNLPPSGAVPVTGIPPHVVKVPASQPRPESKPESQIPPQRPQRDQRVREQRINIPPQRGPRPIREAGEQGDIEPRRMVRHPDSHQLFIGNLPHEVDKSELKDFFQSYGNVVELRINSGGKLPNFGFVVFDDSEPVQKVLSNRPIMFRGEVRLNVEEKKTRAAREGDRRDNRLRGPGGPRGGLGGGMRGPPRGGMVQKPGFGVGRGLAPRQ
Method: RNA Bind-n-Seq
Molecule type: RNA
Sample: in vitro
Tested at: 1 µM
Setting: whole 134-nt RNA, ends assumed
Together with: 150 mM KCl
Baseline: input library
Direction: higher = stronger binding
Strand | log2 enrichment
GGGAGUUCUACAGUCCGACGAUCCCUCAAGUCCUGUGCUACACAUCGUAUGUACCGAAUCGGGGCGGGGCGGCGGAAAGUAUUAUGUUACGCCGUUCGGAUCUGCACUUCCAGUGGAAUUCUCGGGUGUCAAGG | -1.32
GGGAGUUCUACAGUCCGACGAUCGUCCUGUGCUACACAUCGUAUGUACCGAAUCGGUUUUUUUGGAAAAAGGAAAAAAAGGAAAGUAUUAUGUUACGCCGUUCGGAUCUGCACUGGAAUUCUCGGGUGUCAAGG | -1.65
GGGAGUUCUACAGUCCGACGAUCGUCCUGUGCUACACAUCGUAUGUACCGAAUCGGGUUUUUUUGGGUUUUUGGGAAAGGGAAAGUAUUAUGUUACGCCGUUCGGAUCUGCACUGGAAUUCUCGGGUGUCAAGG | -0.326
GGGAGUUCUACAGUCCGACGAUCCCUGUGCUACACAUCGUAUGUACCGAAUCGGGGCCCCCCGGCCCCCCGGGGCCCCCCGGGGAAAGUAUUAUGUUACGCCGUUCGGAUCUGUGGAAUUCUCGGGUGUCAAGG | -1.46
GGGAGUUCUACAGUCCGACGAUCUCCUGUGCUACACAUCGUAUGUACCGAAUCGGGAAAAAAAGGGAAAAAGGGAAAAAGGGAAAGUAUUAUGUUACGCCGUUCGGAUCUGCAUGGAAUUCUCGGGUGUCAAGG | -0.674
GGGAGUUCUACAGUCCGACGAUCUCCUGUGCUACACAUCGUAUGUACCGAAUCGGGUUUUUUGGGGUUUUUUGGGUUUUUUGGAAAGUAUUAUGUUACGCCGUUCGGAUCUGCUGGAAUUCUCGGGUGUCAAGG | -0.136
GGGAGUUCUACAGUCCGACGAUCUAACUUUAGAGGAGGAUCUGAUGGAUAUGGCAGUGGACGUGGAUUUGGGGAUGGCUAUAAUGGGUAUGGAGGAGGACCUGGAGGUCGCAAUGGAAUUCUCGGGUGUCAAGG | -1.07
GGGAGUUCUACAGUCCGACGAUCUCCUGUGCUACACAUCGUAUGUACCGAAUCAAAUUUUUUUAAAUUUAAACCCCCCCAAAAAAGUAUUAUGUUACGCCGUUCGGAUCUGCAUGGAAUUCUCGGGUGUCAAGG | -0.719
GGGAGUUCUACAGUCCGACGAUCCUCAAGUCCUGUGCUACACAUCGUAUGUACCGAAUCGGGCCGGCCGGGGCCGGAAAGUAUUAUGUUACGCCGUUCGGAUCUGCACUUCCAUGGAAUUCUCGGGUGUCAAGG | -0.986
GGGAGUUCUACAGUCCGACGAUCUCAAGUCCUGUGCUACACAUCGUAUGUACCGAAUCGGUUUUUUUGGAGGUUUGGAAAGUAUUAUGUUACGCCGUUCGGAUCUGCACUUCCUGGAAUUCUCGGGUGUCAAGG | -1.22

Set 3
Target: Interferon regulatory factor 5, full length, phosphomimetic (IRF5, Homo sapiens, UniProt Q13568-2, residues 1-514, S451D/S453D/S456D/S462D)
Method: protein-binding microarray
Molecule type: double-stranded DNA, one strand shown
Sample: in vitro
Tested at: 940 nM top
Setting: 60-bp whole probe
Together with: salmon DNA 0.4 mg/ml
Baseline: random background probes
Direction: higher = stronger binding
All sequences stand within: GCCTAGCAC … GTCTTGATTCGCTTGACGCTGCTG
Strand | fitted relative affinity
TTGGTTTTCATTATTGCTTCGTGCTAG | 2.74 z-score
AACGGTATCGACTATCGGGACGTGCTA | 4.87 z-score
GACGAACTGAGACTGGAGATGTGCTAG | 0.065 z-score
GACGGACTGCTATTGCTGACGTGCTAG | -0.598 z-score
TTAGGACTGCTTTTCTTTTAGTGCTAG | 0.217 z-score
GAGGGTATCGGGTATCGGGACGTGCTA | 3.89 z-score
GACGGTCTCCTACTGCTGAAGTGCTAG | -0.096 z-score
GACGGTTTCGGGTTTTGGGACGTGCTA | 7.97 z-score
TGTGTCTGGAATTTTTAGAAGTGCTAG | -0.394 z-score
TTAGATCTCAGTATCGATCAGTGCTAG | 4.2 z-score
GACGGTTTCCTACCGCTGACGTGCTAG | 0.352 z-score
TTAGGAGTGGTACATGAAGCGTGCTAG | -0.753 z-score
GTAGGACTGGGTATCGGTTAGTGCTAG | 3.2 z-score
TAGTATATACACTTATGACTGTGCTAG | -0.233 z-score
TTAGGACTCGGGTTTCGGTTAGTGCTA | 5.47 z-score
TTTGGTATCCTTCTCCTTTAGTGCTAG | 1.51 z-score
TCAGTGCTCCTTTTAATACTGTGCTAG | 0.198 z-score
TTTGATTTCGGGTATCGATTAGTGCTA | 4.27 z-score

Set 4
Target: RING finger protein unkempt homolog, zinc fingers 1-6, GST-SBP tag (UNK, Homo sapiens, UniProt Q9C0B0, residues 30-357)
Sequence of UniProt Q9C0B0 (30-357, looked up): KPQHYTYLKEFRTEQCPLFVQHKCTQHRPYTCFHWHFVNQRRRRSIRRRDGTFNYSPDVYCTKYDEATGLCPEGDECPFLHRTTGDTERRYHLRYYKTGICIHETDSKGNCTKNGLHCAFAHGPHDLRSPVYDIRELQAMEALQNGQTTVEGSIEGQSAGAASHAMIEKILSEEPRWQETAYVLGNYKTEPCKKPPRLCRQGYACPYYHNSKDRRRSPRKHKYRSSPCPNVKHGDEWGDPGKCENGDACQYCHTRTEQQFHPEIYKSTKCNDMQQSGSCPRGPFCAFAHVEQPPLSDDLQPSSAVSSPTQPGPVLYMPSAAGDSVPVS
Method: RNA Bind-n-Seq
Molecule type: RNA
Sample: in vitro
Tested at: not given
Setting: RNA with constant flanks, human and mouse sites, ends assumed
Baseline: input RNA pool
Direction: higher = stronger binding
Strand | bound/input enrichment [ratio]
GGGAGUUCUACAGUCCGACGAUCACUGAAAUACUUAAUGAGCAAUUACUUGAUUUUUAAUGAUGACUUCGAAGGAGUCAUCACUAGGUGCUUUGUCCUUUUUGUAUUCUAGUUGCACCCACCUCUUGGAUUGGAUAUAGCAAUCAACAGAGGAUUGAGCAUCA | 3.92
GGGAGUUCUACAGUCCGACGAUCUGAGUACACAUGGGUGCUGGUGUGGGACAGGAGCAGAUCUUGGUGGAGUGGGUCUACACUUGAGAUUUGUACUCGUUUGAGAGGCUGGGCAAUACUCAAUGCACUUUGGCAUUUGCAUGGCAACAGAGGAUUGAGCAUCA | 0.312
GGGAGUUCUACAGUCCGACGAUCGAUGAAAUCAACUUGCCCGAUAUGGAUAAAUACGGCACACAGAGAGUCAUCUCCUUCAUCAGACAGAUGGUGGAGCAUGGAGGCUUCUAUCGUACCUCAGACCAAACGUGGGUAAAGCUACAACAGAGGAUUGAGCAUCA | 0.157
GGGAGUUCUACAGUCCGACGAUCGCAUCUAUCGAGUUUGCAAUGUCACAACCUCUCUGAUCUUGUGCUCAGCAUGAUUCUUUAAUAGAAGUUUUAUUUUUUCGUGCACUCUGCUAAUCAUGUGGGUGAGCCAGUGGAACAGCGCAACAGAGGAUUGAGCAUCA | 0.455
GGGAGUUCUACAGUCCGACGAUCAGACGUUGUGUUUCCUCAGCCAUUUUCCCUCUGCUGCCCCAGUUUACUCUGUCCAAAACCCUAAGGUUCUUCUCUCACUUGAACACAGACGACCUUGCUUGGGUGAUGAGACAUCCCCUUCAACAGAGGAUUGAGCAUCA | 0.171
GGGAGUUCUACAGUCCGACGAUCUACAACAUGGCUUCUGUCGACUUUGAUGGCUUCUUUGCAGCCUUUCUUCCAGAGUUCCUGACUAGCUGUGAUGGUGUGGAUGCCAAUCAGAAAAACGUUCUGGGGCGGAAUUUCAAGAUGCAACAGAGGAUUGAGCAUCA | 0.123
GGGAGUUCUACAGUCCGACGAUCUGCUUGGUGCUGAUUUGUGAACCCAUUCCUCACCCAUCAAAUAUUGAAAUUCCUUUAGAUAGCAAGACUUUCCUCAGUCGACACAGCCUGGAUAUGAAAUUUUCUUAUUGUGAUGAAAGACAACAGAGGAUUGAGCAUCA | 1.4
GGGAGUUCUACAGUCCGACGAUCGUGCUAGAAAAUAAGGUCGUCUGGGAAAAGGACUGGAGACACAAGCGCAUCCAACCCCGGUAGCAAACUGAUGACUUUUCCGUGCUGAUUUCUUUCAACCUCGGUAUUUUCCCUUGGAUACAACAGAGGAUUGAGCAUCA | 0.321

A few entries again (set 3):
Strand | fitted relative affinity
TGTGTCTGGAATTTTTAGAAGTGCTAG | -0.394 z-score
GACGGTCTCCTACTGCTGAAGTGCTAG | -0.096 z-score
AACGGTATCGACTATCGGGACGTGCTA | 4.87 z-score
